Measured values gathered from unrelated publications.
Lines come from different studies, so protocols differ. Several values in a cell are separate wells, animals, samples, runs or records. Numbers after ± are the reported error.

| SMILES | assay | test system | setting | quantity | result |
| --- | --- | --- | --- | --- | --- |
| Oc1ccc(CCc2cc(O)cc(O)c2)cc1 |  | human, both sexes, plasma |  | samples above LOQ | 23.3% |
| Cc1cnc(N2CC3(CCOCC3)C2)c(C(=O)Nc2ccc(C(=O)N3CCc4cc(C(=O)Nc5c(C)cccc5F)sc4-c4ccccc43)cc2)c1 |  | dog | inhaled, dose not given, 14 days | NOEL | 14.5 mg/kg/day |
| C=C(CN(C(=O)c1c(C(F)F)nn(C)c1F)C1CC1)c1ccc(Cl)cc1Cl | static acute toxicity test | zebrafish (Brachydanio rerio) | 0.578 mg a.i./L, 24 h | mortality | 0% |
| O=C(Nc1ccccc1)C1CCN(C(=O)Oc2cccnc2)CC1 | item: Illusion | healthy female human | concentration not given, all doses pooled | adverse event incidence | 13% |
| COc1cc2c(Oc3ccc4[nH]c(C)cc4c3F)ccnc2cc1OCC1(N)CC1 |  | paediatric recurrent refractory sarcoma | concentration not given, whole group | grade 1 or 2 Tinnitus | 5.9% |
| O=C(O)CCCOc1ccc(F)cc1-c1cc(-c2ccccc2C(F)(F)F)n(-c2ccccc2)n1 |  | male Crl:CD(SD) rats, testes | intravenous, 25 µg/kg, 14 d | relative organ weight | 0.76 ± 0.13 g% |
| N#C[C@@]1(n2ccc(N)nc2=O)O[C@H](CO)[C@@H](O)[C@H]1O |  | CD-1 mouse, lung | oral, 30 mg/kg, 7 h | concentration | 1620 ng/g and 731 ng/g and 882 ng/g |
| Cc1ccc(F)c2cc(C(=O)N[C@@H]3CCC[C@H](N4CC[C@H](N(C)S(C)(=O)=O)C4)C3)[nH]c12 |  | CD1 mouse, plasma | oral, 100 mg/kg, 10 h | plasma concentration | 422 ng/mL |
| O=c1ccc2ccc3occc3c2o1 | three freeze-thaw cycles | rat plasma | 1000 ng/mL, -70 °C freeze | accuracy | 94.8% |
| O=C1Nc2cc3[nH]nc(-c4ccncc4)c3cc2CN1Cc1ccccc1 | CTCAE v4.03 | advanced solid tumour patients | intravenous, 7.2 mg/kg, schedules 1/2 | patients with diarrhoea | 0% |
| C[C@]1(CO)Cc2ncn(-c3ccc(C#N)c(Cl)c3)c2C(=O)O1 |  | human | all treatments, European food-effect part | any TEAE | 25% |
| Clc1ccc(-c2ccccc2)cc1 |  | rat Sprague-Dawley female, serum | inhalation, 23 µg/rat, 1 h | serum free thyroxine | 38 ± 4 pmol/L |
| COc1ccc([C@@H](O)c2cc(-c3ncnc4cc(N5CCOCC5)ccc34)c(F)cc2Cl)nn1 |  | patients, advanced solid tumours | oral, 200 mg twice daily, treatment-emergent, with: avelumab | flatulence incidence | 10% |
| C[C@@H](NC(=O)N1C(=O)[C@H](Cc2ccnc(N)c2)[C@H]1C(=O)O)C1CCCCC1 |  | healthy adult Chinese volunteers | continuous intravenous infusion, 1.5 mg/kg/h, 5-day infusion, CTCAE 5.0 grading | incidence of urine occult blood positive | 12.5% |

A few entries again:
| SMILES | assay | test system | setting | quantity | result |
| --- | --- | --- | --- | --- | --- |
| O=C(Nc1ccccc1)C1CCN(C(=O)Oc2cccnc2)CC1 | item: Illusion | healthy female human | concentration not given, all doses pooled | adverse event incidence | 13% |
| COc1cc2c(Oc3ccc4[nH]c(C)cc4c3F)ccnc2cc1OCC1(N)CC1 |  | paediatric recurrent refractory sarcoma | concentration not given, whole group | grade 1 or 2 Tinnitus | 5.9% |
